Assay results gathered from unrelated publications.
Numbered parts are unrelated; each lists some results of a single study.

Series 1
Target: Sal-like protein 4, full length isoform A (SALL4, Homo sapiens, UniProt Q9UJQ4, residues 1-1053)
Chain of UniProt Q9UJQ4 (whole entry, looked up): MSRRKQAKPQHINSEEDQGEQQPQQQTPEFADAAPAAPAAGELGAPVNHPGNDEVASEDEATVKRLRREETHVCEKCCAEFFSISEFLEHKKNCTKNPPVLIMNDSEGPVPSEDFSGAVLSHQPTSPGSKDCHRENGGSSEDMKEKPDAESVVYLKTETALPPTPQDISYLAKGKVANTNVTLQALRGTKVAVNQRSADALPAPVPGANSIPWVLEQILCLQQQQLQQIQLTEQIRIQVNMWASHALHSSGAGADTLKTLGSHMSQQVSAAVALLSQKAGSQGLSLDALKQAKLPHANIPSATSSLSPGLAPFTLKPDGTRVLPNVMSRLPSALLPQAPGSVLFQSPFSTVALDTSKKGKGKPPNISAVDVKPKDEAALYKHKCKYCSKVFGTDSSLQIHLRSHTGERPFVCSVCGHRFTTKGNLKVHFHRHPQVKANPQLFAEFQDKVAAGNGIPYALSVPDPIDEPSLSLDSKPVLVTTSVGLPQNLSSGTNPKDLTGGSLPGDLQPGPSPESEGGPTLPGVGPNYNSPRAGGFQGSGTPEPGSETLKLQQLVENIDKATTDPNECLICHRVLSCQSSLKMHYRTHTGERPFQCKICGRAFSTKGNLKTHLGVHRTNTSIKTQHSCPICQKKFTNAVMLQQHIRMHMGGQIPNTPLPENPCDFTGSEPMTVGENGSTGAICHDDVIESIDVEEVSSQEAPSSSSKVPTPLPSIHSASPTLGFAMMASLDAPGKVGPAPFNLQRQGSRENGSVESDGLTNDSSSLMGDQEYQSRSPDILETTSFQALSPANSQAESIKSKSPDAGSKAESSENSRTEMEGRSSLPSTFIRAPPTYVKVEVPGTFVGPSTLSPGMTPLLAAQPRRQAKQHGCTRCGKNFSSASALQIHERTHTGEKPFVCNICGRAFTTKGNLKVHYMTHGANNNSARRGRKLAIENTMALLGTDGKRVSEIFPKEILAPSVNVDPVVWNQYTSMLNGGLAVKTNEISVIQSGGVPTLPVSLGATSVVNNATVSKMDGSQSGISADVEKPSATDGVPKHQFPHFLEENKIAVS
Technique: universal PBM
Form: double-stranded DNA, one strand shown
Sample: in vitro
Concentration: 600 nM
Setting: 8-mer, flanks averaged, mean of replicates
Reading: higher = stronger binding
Oligonucleotide | E-score
CACCGAAC | -0.192
CTAAGTCA | 0.0705
GAGTCCTA | -0.0799
CTAAGGGA | -0.0906
AACCCCTG | -0.244
TAATCGCA | 0.183
CAGCGCTA | -0.103
GATCGGGA | -0.251
GCGCCGAA | -0.18
CTTAGCGC | -0.15

Series 2
Target: Histone acetyltransferase KAT6A, winged helix 1, GST fusion (KAT6A, Homo sapiens, UniProt Q92794, residues 1-85)
Technique: protein binding microarray
Form: double-stranded DNA, one strand shown
Sample: in vitro
Concentration: not given
Setting: 8-mer, flanks averaged, mean of 2 arrays, mostly near background
Relative to: not given
Reading: higher = stronger binding
Construct (chain): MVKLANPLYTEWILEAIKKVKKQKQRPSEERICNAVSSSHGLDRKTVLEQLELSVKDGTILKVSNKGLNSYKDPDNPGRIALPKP
Oligonucleotide | E-score
CTGGTTAA | -0.195
ACACGCGT | 0.275
CCCTTAGC | 0.137
TGCGTCAA | 0.00785
ATGACCCG | 0.115
TCCATTAA | -0.0276
CGACTATA | -0.132
GGCTAATA | 0.0575
AATAAGGT | -0.0149

Series 3
Target: Transcriptional repressor CTCF (CTCF, Homo sapiens, UniProt P49711, residues 1-727, full length assumed)
Technique: protein-binding microarray
Form: double-stranded DNA, one strand shown
Sample: in vitro
Concentration: not given
Setting: k-mer, scored over probes, only values ≥0.25
Reading: higher = stronger binding
Residues (chain): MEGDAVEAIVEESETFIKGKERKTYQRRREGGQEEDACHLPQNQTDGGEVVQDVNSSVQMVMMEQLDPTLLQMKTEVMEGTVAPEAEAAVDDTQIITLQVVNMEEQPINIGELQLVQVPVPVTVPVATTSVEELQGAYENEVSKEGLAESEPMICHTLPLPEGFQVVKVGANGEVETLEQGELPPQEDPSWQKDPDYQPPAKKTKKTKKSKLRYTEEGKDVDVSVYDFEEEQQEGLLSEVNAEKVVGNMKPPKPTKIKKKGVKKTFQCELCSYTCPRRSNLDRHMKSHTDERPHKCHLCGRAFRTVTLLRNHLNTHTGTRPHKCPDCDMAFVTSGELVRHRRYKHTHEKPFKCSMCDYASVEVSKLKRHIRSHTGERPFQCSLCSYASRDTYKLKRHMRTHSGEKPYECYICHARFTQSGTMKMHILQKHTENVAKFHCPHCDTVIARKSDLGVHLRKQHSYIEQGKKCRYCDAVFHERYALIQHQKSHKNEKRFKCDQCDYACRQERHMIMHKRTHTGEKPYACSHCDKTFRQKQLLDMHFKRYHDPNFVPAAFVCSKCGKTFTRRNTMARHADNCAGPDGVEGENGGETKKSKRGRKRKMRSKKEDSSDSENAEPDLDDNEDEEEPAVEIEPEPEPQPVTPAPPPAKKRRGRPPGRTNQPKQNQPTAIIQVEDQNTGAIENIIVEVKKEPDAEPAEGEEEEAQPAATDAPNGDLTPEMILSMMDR
Oligonucleotide | E-score
AATGCGCA | 0.458
ACGAATAA | 0.26
CGTTTATA | 0.267
TAATTTAA | 0.291
AATGCGCT | 0.269
ACAATTAA | 0.269
CACATATC | 0.261
GTGCGCCA | 0.346
AGCGCCCT | 0.255

Mixed results
Substance | target | test | test system | conditions | how to read | endpoint | result
PhoQ, residues 284 288 289 292 302 303 ALASRC | PhoP, residues 12 14 15 18 19 MHTVL (Escherichia coli, UniProt P23836) | Sort-seq, item: YFP reporter | E. coli | PhoQ-PhoP variant library, added: 10 µM Mg2+ | relative to: high Mg2+ state, higher = stronger signaling | fold induction | 9.97

A few entries again (series 2):
Oligonucleotide | E-score
TGCGTCAA | 0.00785
ATGACCCG | 0.115
TCCATTAA | -0.0276
CGACTATA | -0.132
GGCTAATA | 0.0575
